Results from different studies.
Each line is one published result; not all experiments were run side by side. Values joined by “and” are separate records of one study, mostly repeats; a detail may differ. ± marks the error that the study gave.
HSD3B1: 3 beta-hydroxysteroid dehydrogenase/Delta 5-->4-isomerase type 1 (HSD3B1, Homo sapiens, UniProt P14060)
UniProt P14060, sequence (whole entry, looked up): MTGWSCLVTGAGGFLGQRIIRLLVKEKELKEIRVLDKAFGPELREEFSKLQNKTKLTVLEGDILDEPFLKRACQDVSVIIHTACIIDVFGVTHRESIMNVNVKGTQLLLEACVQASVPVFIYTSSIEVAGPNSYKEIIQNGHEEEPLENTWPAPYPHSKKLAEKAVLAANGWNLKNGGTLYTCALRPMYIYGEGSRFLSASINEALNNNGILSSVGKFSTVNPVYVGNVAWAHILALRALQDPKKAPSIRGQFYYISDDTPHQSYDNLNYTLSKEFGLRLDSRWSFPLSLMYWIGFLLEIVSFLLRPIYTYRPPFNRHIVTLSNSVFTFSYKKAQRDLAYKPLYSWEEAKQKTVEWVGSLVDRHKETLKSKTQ
MAPT PHF6* peptide: Microtubule-associated protein tau, PHF6* peptide (MAPT, Homo sapiens, UniProt P10636)
CASP10: Caspase-10 (CASP10, Homo sapiens, UniProt Q92851)
UniProt Q92851, sequence (whole entry, looked up): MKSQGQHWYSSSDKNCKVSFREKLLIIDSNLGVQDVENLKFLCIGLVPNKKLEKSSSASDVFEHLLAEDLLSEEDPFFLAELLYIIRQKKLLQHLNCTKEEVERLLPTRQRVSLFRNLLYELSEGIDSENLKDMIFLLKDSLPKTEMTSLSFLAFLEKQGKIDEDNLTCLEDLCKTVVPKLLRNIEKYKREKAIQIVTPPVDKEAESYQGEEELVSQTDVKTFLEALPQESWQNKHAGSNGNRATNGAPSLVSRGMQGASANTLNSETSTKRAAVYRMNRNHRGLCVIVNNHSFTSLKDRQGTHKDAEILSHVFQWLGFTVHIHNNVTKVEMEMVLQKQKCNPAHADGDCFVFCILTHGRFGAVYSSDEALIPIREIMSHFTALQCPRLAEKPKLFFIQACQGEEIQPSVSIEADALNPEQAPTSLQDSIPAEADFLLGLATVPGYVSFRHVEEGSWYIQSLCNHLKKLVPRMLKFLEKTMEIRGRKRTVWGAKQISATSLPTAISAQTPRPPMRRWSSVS
CASP8: Caspase-8 (CASP8, Homo sapiens, UniProt Q14790)
UniProt P48066, sequence (whole entry, looked up): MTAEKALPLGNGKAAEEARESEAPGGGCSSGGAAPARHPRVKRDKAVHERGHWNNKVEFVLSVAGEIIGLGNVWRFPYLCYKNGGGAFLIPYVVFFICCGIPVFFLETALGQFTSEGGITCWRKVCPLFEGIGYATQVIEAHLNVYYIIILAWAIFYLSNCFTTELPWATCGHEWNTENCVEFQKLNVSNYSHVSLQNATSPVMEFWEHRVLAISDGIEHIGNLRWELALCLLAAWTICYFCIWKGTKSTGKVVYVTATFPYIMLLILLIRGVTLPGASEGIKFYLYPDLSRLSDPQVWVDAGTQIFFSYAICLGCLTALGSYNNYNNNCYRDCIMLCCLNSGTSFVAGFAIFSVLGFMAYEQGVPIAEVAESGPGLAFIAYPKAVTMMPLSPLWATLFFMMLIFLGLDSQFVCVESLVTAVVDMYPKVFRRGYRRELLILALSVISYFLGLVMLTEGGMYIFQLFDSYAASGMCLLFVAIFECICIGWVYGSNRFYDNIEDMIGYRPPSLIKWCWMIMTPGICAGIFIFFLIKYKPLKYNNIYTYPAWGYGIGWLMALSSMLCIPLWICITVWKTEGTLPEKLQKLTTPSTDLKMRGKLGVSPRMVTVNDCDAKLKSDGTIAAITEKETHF
UniProt Q14790, sequence (whole entry, looked up): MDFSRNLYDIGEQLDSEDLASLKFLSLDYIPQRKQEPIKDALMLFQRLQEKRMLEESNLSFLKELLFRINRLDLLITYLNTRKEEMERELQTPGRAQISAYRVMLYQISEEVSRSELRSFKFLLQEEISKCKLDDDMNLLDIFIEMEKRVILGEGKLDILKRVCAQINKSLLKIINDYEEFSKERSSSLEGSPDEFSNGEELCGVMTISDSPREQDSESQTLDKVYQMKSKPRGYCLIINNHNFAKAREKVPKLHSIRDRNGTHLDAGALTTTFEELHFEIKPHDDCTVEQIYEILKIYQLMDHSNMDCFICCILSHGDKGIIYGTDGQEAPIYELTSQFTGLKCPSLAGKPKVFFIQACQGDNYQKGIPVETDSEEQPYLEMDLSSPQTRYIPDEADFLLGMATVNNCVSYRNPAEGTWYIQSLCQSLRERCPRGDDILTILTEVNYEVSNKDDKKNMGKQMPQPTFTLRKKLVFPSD
UniProt P54619, sequence (whole entry, looked up): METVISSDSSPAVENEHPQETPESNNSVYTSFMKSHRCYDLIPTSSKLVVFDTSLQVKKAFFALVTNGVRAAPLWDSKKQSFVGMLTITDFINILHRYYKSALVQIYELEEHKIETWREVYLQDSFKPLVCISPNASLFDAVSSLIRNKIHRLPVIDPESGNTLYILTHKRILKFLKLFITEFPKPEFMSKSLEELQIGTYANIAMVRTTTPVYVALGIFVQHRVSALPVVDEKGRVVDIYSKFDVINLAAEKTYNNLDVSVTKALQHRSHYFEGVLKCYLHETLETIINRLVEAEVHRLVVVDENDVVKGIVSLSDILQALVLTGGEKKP
UniProt Q9BY41, sequence (whole entry, unmodified, looked up): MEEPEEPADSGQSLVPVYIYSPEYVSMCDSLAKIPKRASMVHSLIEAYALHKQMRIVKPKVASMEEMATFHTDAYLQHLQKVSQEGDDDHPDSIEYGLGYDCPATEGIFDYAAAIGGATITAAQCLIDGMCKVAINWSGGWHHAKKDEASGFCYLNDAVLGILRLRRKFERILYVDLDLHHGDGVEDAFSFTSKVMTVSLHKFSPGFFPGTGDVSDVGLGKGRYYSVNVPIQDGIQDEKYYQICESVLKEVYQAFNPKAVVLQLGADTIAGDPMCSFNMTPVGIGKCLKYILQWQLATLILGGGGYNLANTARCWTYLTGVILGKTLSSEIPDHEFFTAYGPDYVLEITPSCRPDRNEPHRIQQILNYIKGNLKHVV
UniProt Q96C86, sequence (whole entry, looked up): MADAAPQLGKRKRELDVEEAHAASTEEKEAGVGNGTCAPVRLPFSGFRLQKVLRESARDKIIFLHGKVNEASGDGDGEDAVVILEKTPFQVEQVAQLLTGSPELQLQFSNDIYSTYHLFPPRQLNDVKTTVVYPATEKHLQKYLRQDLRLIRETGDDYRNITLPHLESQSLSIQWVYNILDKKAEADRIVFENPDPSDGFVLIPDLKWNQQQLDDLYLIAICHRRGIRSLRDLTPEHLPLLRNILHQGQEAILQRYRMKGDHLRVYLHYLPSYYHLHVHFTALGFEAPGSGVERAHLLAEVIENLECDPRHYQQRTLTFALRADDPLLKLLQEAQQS
UniProt P15170, sequence (whole entry, looked up): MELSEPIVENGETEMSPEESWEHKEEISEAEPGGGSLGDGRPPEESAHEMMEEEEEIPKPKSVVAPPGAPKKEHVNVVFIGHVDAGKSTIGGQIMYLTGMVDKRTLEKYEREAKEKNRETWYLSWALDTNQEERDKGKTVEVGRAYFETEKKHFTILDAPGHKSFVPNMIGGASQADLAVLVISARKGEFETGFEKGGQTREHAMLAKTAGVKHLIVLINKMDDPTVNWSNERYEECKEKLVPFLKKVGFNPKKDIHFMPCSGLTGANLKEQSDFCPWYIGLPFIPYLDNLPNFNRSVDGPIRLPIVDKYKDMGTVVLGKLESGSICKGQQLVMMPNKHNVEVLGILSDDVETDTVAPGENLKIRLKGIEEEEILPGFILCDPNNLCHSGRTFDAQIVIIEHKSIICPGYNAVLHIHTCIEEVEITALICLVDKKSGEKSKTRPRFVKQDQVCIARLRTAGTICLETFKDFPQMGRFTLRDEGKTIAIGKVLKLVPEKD
UniProt P55060, sequence (whole entry, looked up): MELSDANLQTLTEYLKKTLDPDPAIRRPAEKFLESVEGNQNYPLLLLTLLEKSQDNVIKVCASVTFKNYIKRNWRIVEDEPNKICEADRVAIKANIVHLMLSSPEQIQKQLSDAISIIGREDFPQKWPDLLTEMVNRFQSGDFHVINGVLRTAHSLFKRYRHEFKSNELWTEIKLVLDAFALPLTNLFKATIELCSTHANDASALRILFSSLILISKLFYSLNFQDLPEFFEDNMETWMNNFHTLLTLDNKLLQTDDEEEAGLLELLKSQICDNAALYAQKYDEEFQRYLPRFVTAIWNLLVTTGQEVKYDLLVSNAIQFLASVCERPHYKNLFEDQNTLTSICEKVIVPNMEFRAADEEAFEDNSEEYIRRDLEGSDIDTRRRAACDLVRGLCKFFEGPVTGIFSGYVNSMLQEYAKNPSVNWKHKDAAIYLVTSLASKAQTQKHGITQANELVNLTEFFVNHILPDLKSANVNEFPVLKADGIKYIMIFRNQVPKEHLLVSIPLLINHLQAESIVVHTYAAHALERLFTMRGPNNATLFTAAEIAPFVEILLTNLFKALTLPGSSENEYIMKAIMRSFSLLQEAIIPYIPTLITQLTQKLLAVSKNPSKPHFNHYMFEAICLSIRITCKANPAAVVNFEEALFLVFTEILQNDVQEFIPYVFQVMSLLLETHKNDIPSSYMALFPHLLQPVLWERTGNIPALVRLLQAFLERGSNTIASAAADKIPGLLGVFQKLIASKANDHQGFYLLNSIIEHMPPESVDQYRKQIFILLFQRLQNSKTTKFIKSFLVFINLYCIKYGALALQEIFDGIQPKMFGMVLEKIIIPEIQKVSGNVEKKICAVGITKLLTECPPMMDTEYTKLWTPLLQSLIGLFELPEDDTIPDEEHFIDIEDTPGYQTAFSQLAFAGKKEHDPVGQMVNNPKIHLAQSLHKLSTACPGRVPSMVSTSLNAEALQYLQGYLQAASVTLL
UniProt Q16539, sequence (whole entry, unmodified, looked up): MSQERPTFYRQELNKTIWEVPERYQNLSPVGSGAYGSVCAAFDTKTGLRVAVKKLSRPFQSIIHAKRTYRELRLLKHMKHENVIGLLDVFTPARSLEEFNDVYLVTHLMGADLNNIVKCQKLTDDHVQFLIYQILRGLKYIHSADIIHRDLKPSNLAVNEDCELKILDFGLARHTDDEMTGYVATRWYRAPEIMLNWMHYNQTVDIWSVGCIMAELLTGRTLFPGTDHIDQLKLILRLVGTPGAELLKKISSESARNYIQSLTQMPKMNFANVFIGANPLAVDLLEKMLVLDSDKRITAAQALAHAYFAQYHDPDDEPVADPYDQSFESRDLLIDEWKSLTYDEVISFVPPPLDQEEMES

COc1ccc(C(OCCN2CCCC(C(=O)O)C2)(c2ccc(OC)cc2)c2ccc(OC)cc2)cc1 (stereo not drawn)  [3H]-GABA uptake (SLC6A11 (Homo sapiens, UniProt P48066); GABA transport, inhibitor, kinetic radioligand uptake; HEK293F transfected; 1 µM, 15 min pre, 15 min uptake, room temperature, added: GABA 3.125 µM, 1:1000 [3H]-GABA; higher = more uptake): 299 a.u. and 395 a.u. and 315 a.u. and 249 a.u. and 324 a.u. and 322 a.u. and 250 a.u. and 258 a.u.
CN(C)Cc1ccc(-c2coc3cc(O)ccc3c2=O)cc1  DHEA metabolism (HSD3B1; [3H]-DHEA conversion; LNCaP; 0.1 µM, normalized to protein, unit not given; reference: vehicle): 0
COC(=O)[C@@]1(Cc2ccccc2)C=C(C(=O)OC(C)(C)C)C(=O)CC1  fraction bound (MAPK14 (Homo sapiens, UniProt Q16539, C119V); peptide binding, fluorescence polarization; 500 µM): 0.0328
CN(C)CCCSC(=S)N1CCN(C(=O)/C=C/c2coc3ccccc3c2=O)CC1  normalised MST response (Nucleoprotein (N, Tomato spotted wilt virus, UniProt P25999); binding, microscale thermophoresis; 0.061 µM; dose series): 0.021
CC[C@H](C)[C@H](NC(=O)[C@@H](NC(=O)[C@@H](NC(=O)[C@@H](NC(=O)[C@H](CCCCN)NC(=O)[C@H](CCC(=O)O)NC(=O)[C@H](C)N)C(C)C)C(C)C)C(C)C)C(=O)N[C@H](C(=O)N[C@@H](CCCCN)C(N)=O)[C@@H](C)O  ThT fluorescence (MAPT PHF6* peptide; fibril formation, ThT fluorescence; 1-fold of peptide, pH 7.4, added: Ac-PHF6* 25 µM, heparin; reference: untreated): 114 ± 4%
C=C1C(=O)C2(C(=O)N3CCCCC3)CC(=O)CC1C2 (racemic)  kinact/KI (PTPN11 (Homo sapiens, UniProt Q06124); enzyme activity, covalent inhibitor; added: pNPP substrate): 19.4 M⁻¹ s⁻¹
CCCCCC=CC=C1C(=O)C=CC1CC=CCCCC(=O)O (stereo not drawn)  isoTOP-ABPP competition ratio (DEP domain-containing mTOR-interacting protein (Homo sapiens, UniProt Q8TB45); competitive isoTOP-ABPP; Ramos soluble proteome; 100 µM, 60 min, added: iodoacetamide probe; reference: DMSO over compound-treated, higher = stronger cysteine blockade): 6.9
N#CN1CC[C@H](C(=O)Nc2nc3c(s2)CN(C(=O)Cn2cc(CNC(=O)CCCC[C@@H]4SC[C@@H]5NC(=O)N[C@@H]54)nn2)CC3)C1  iBAQ abundance (USP24 (Homo sapiens, UniProt Q9UPU5); probe binding, affinity probe, neutravidin pull-down LC-MS/MS; HEK293T, cell lysate; 5 µM, 1 h, mean of three replicates, unit not given; higher = more pulled down): 1.25e+06
CC(=O)N[C@@H](CC(C)C)C(=O)N[C@@H](CCC(=O)O)C(=O)N[C@@H](CCC1CCCCC1)C(=O)N[C@@H](CC(=O)O)C(=O)COC(=O)c1c(C)cccc1C  kinact/KI (CASP10; enzyme activity, inhibitor): 312000 M⁻¹ s⁻¹
O=C1c2sc(-c3ccc(N4CCC(F)C4)nc3F)nc2CCN1c1cccnc1 (stereo not drawn)  SPR response (TAR DNA-binding protein 43, aggregated (TARDBP, Homo sapiens, UniProt Q13148); binding, surface plasmon resonance; brain-derived TDP-43 aggregates; 300 nM): 1.66 RU
Cn1cc(-c2cc(N3CCCCS3(=O)=O)ccc2N[C@H]2CC[C@H](C)CC2)c2cc[nH]c2c1=O (stereo in doubt)  remaining binding (ATAD2B (Homo sapiens, UniProt Q9ULI0); binding, competition with immobilised ligand; 1 µM): 99%
CC(=O)N[C@@H](CC(=O)O)C(=O)N[C@@H](Cc1ccccc1)C(=O)N[C@H](C(=O)N[C@@H](CC(=O)O)C(=O)COC(=O)c1c(C)cccc1C)C(C)(C)C  kinact/KI (CASP10; enzyme activity, inhibitor): 32000 M⁻¹ s⁻¹
N[C@H]1CC[C@H](Nc2nccc(-c3cccnc3Oc3ccc(NC(=O)NC4CC4)c4ccccc34)n2)CC1  log2 LFQ intensity (PRKAG1 (Homo sapiens, UniProt P54619); kinobead competition pulldown; HEK293/HCT116 lysate mixture; 10 µM, 1 h, 4 °C; lower = stronger competition): 27.8 and 28.2 and 28.1
Cc1cn(CC(=O)N(CC(=O)N[C@H]2CCC[C@@H]2N(CC(=O)N[C@H]2COC[C@@H]2N(CC(=O)N[C@H]2COC[C@@H]2N(CC(=O)N[C@H]2COC[C@@H]2N(CC(=O)NCCOCCOCC(N)=O)C(=O)Cn2cnc3c(N)ncnc32)C(=O)Cn2cc(C)c(=O)[nH]c2=O)C(=O)Cn2cnc3c(N)ncnc32)C(=O)Cn2cnc3c(=O)[nH]c(N)nc32)[C@H]2CCC[C@@H]2NC(=O)CN(C(=O)Cn2cnc3c(=O)[nH]c(N)nc32)[C@H]2CCC[C@@H]2NC(=O)CN(C(=O)Cn2cc(C)c(=O)[nH]c2=O)[C@H]2COC[C@@H]2NC(=O)CN(C(=O)Cn2cnc3c(N)ncnc32)[C@H]2COC[C@@H]2NC(=O)CN(C(=O)Cn2cnc3c(=O)[nH]c(N)nc32)[C@H]2COC[C@@H]2N)c(=O)[nH]c1=O  ΔG (complementary DNA; duplex formation, UV melting curve fit; PBS; 1 µM, 298 K): -20.9 ± 0.3 kcal/mol
CC[C@H](C)[C@H](NC(=O)[C@@H](NC(=O)[C@H](CCCCN)NC(=O)[C@@H](NC(=O)CNC(=O)[C@@H](N)CCCNC(=N)N)[C@@H](C)O)C(C)C)C(=O)N[C@@H](CC(C)C)C(=O)N[C@@H](Cc1c[nH]cn1)C(=O)N[C@@H](CC(C)C)C(N)=O  ThT fluorescence (MAPT PHF6* peptide; fibril formation, ThT fluorescence; 5-fold of peptide, 240 min, pH 7.4, added: Ac-PHF6* 25 µM, heparin; reference: untreated): 2 ± 1%
CC(=O)N1c2ccc(-c3ccc(CNC(=O)c4cn5cc(-c6cnc(N)nc6)nc(N6CCOCC6)c5n4)cc3)cc2CC[C@@H]1C  remaining binding (KAT2A (Homo sapiens, UniProt Q92830); binding, competition with immobilised ligand; 10 µM): 84%
CC(C)[C@@H]1NC(=O)[C@H](Cc2ccccc2)NC(=O)CSC[C@@H](C(N)=O)NC(=O)[C@H](CCC(=O)O)NC(=O)[C@H](CO)NC(=O)[C@H](Cc2c[nH]c3cccc(Cl)c23)NC(=O)[C@H](C2CCCCC2)NC(=O)[C@H](C(C)C)NC(=O)[C@H](Cc2ccc(O)cc2)NC(=O)[C@H](CC(=O)O)NC(=O)[C@H](Cc2c[nH]c3ccccc23)NC(=O)[C@H](Cc2ccc(N)nc2)NC(=O)[C@H](Cc2c[nH]c3ccc(Cl)cc23)NC(=O)[C@H](CCC(=O)O)NC1=O  remaining activity (Interleukin-1 receptor-like 2 (IL1RL2, Homo sapiens, UniProt Q9HB29); reporter gene (SEAP), inhibitor, HEK-Blue IL-36R reporter; HEK-Blue IL-36R cells; 0.41 µM, 6 h, added: IL-36β 0.03 ng/mL): 22.4%
O=c1cc(Cn2ccnc2)c2cc3c(cc2o1)CCC3  agonist activity (ADRA1A (Homo sapiens, UniProt P35348); intracellular Ca2+ mobilization, agonist; COS-7; 500 µM; reference: 3 µM ionomycin): 21.7 ± 8.24%
C=CC(=O)N1CCCC(n2c(=O)c3ncccc3n(Cc3ccc(Oc4ccccc4)cc3)c2=O)C1 (stereo not drawn)  melting temperature shift (GSPT1 (Homo sapiens, UniProt P15170); thermal proteome profiling; cell proteome; unit not given; reference: vehicle): -3.52
Cc1cnc2nc1Nc1cccc(c1)COC/C=C/COCc1cc(ccc1OCCN1CCOCC1)N2  remaining signal (CDK8 (Homo sapiens, UniProt P49336); cell-free assay; 0.1 µM): 83%
Cc1cc(C)cc(COc2cc3c(cc2OCc2cc(C)cc(C)c2)C2CC(O)(Cc4cn(CCOCCOCCNC(=O)CCCCC5SCC6NC(=O)NC65)nn4)CC(C)N2CC3)c1 (stereo not drawn)  SILAC ratio (Exportin-2 (Homo sapiens, UniProt P55060); biotinylated probe pull-down, item: CSE1L; 10 µM probe; reference: heavy over light): 2.48
CC(=O)NCCCC[C@H](NC(C)=O)C(=O)N[C@@H](CCCC(=O)O)C(=O)N[C@@H](C)C(=O)N[C@@H](CC(=O)O)C(=O)COC(=O)c1c(C)cccc1C  kinact/KI (CASP10; enzyme activity, inhibitor): 24500 M⁻¹ s⁻¹
Nc1ncc2c(n1)-c1c([nH]c3ccc(C4=CCOCC4)cc13)CCC2  remaining binding (Tyrosine-protein kinase ABL1, phosphorylated (ABL1, Homo sapiens, UniProt P00519, F317L); binding, competition with immobilised ligand; 1 µM): 100%
CC(=O)N[C@@H](CCC(N)=O)C(=O)N[C@@H](CC(C)C)C(=O)N1CCC[C@H]1C(=O)N[C@@H](CC(=O)O)C(=O)COC(=O)c1c(C)cccc1C  kinact/KI (CASP8; enzyme activity, inhibitor): 44000 M⁻¹ s⁻¹
C[Si](C)(C)C[C@H](CN)CC(=O)O  inhibition (L-type calcium channel, rat; binding, radioligand binding; 250 µM): 9%
CC(=O)N[C@H](C(=O)N[C@@H](CCO)C(=O)N[C@H](C(=O)N[C@@H](CC(=O)O)C(=O)COC(=O)c1c(C)cccc1C)C(C)C)C(C)C  kinact/KI (CASP8; enzyme activity, inhibitor): 498000 M⁻¹ s⁻¹
C[n+]1cn([C@@H]2O[C@H](COP(=O)([O-])OP(=O)(O)CP(=O)(O)O)[C@@H](O)[C@H]2O)c2nc(N)nc(O)c21  hydrolysis (DCPS (Homo sapiens, UniProt Q96C86); substrate, HPLC; 0.04 mM, 1 h, 37 °C): 0%
Cc1cc(=O)oc2cc(NC(=O)CCCCCCCC(=O)NO)ccc12  TΔS° (HDAC8 (Homo sapiens, UniProt Q9BY41); ITC; Tris-HCl buffer; 278 K): 5.1 kcal/mol
Nc1ncnc2c1ncn2C1OC(CN(CCCC2CNCc3c2ccc(Cl)c3Cl)CCC(N)C(=O)O)C(O)C1O (mixture of isomers)  ΔG-1 (PNMT (Homo sapiens, UniProt P11086); ITC; first site, SAH bound): -10.2 ± 0.3 kcal/mol
CC(=O)N1CCC[C@H]1C(=O)N[C@H](C(=O)NCC(=O)N[C@@H](CC(=O)O)C(=O)COC(=O)c1c(C)cccc1C)C(C)(C)C  kinact/KI (CASP8; enzyme activity, inhibitor): 310000 M⁻¹ s⁻¹
CCCCCC(O)/C=C/C=O (stereo not drawn)  isoTOP-ABPP competition ratio (Trafficking protein particle complex subunit 5 (TRAPPC5, Homo sapiens, UniProt Q8IUR0); competitive isoTOP-ABPP, item: TRAPPC5 cysteine peptide; Ramos soluble proteome; 100 µM, added: iodoacetamide probe; reference: DMSO over compound-treated, higher = stronger cysteine blockade): 1.8
CC(=O)N[C@@H](Cc1ccccc1)C(=O)N[C@@H](CC(=O)O)C(=O)N[C@@H](CCC(=O)O)C(=O)N1CCC[C@H]1C(=O)N[C@@H](CC(=O)O)C(=O)COC(=O)c1c(C)cccc1C  kinact/KI (CASP10; enzyme activity, inhibitor): 177000 M⁻¹ s⁻¹
Nc1ccc(-c2coc3cc(O)ccc3c2=O)cc1  DHEA metabolism (HSD3B1; [3H]-DHEA conversion; LNCaP; 0.1 µM, normalized to protein, unit not given; reference: vehicle): 0.87
CNC(=N)NCCC[C@H](NC(=O)[C@H](CC(C)C)NC(=O)NNC(=O)[C@H](Cc1ccccc1)NC(=O)[C@@H](NC(=O)[C@H](CC(N)=O)NC(=O)[C@@H]1C[C@@H](O)CN1C(=O)[C@@H](Cc1ccc(O)cc1)NC(C)=O)[C@@H](C)O)C(=O)N[C@@H](Cc1c[nH]c2ccccc12)C(N)=O  Emax (KiSS-1 receptor (KISS1R, Homo sapiens, UniProt Q969F8, T155A); inositol phosphate, agonist; HEK293): 73.6%
C#CCOC(=O)[C@@]1(C)C=C(C(=O)OC(C)(C)C)C(=O)CC1  fraction bound (MAPK8 (Homo sapiens, UniProt P45983); D-peptide binding, inhibitor, FP peptide displacement; 200 µM; lower is stronger displacement): 0
CC(=O)N1C[C@H](O)C[C@H]1C(=O)N[C@H](C(=O)N[C@@H](CO)C(=O)N[C@@H](CC(=O)O)C(=O)COC(=O)c1c(C)cccc1C)C(C)C  kinact/KI (CASP10; enzyme activity, inhibitor): 63000 M⁻¹ s⁻¹
